Measurements gathered from unrelated publications.
Every numbered part comes from another study and shows a few of its results, in no order. Positions count from the first letter of the parent shown.
UniProt Q38828, sequence (whole entry, looked up): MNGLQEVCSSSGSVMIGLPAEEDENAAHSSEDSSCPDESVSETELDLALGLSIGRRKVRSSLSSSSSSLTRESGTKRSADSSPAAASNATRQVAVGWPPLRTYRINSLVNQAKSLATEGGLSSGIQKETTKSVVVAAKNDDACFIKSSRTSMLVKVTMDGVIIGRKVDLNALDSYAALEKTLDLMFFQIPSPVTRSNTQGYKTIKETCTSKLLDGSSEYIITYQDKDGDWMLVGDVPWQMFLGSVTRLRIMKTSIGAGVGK
UniProt Q84WU6, sequence (whole entry, looked up): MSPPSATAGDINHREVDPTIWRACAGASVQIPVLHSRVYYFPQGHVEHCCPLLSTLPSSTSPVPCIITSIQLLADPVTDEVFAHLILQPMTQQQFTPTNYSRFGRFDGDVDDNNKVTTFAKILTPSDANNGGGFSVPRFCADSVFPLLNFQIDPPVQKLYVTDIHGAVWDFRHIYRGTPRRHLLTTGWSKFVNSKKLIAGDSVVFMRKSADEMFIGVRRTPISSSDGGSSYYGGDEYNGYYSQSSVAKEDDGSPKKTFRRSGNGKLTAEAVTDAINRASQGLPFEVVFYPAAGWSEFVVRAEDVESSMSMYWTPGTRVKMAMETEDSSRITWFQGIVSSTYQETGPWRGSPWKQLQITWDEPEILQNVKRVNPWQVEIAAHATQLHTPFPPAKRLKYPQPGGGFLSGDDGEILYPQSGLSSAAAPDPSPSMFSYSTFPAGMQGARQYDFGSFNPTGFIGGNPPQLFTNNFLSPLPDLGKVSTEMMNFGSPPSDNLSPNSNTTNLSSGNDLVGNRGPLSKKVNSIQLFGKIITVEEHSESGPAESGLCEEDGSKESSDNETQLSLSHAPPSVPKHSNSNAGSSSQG
UniProt Q9FX25, sequence (whole entry, looked up): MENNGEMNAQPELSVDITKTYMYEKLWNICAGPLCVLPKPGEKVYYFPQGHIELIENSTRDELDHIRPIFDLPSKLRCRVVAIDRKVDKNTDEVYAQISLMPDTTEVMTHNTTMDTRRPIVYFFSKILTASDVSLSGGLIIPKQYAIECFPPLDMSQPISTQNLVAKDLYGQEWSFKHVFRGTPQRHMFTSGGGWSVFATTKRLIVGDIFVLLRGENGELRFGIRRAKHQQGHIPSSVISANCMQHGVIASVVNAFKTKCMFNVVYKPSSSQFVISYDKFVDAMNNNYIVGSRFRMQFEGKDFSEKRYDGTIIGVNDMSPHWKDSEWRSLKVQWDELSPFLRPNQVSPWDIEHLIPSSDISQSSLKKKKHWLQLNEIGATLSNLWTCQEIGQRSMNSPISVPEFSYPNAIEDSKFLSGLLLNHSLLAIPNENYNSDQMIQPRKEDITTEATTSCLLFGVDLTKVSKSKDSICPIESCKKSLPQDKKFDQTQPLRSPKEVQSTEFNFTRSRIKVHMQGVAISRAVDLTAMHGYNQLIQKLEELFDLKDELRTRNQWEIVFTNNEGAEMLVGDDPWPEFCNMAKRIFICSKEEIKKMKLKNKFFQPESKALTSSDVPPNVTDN
UniProt Q8H174, sequence (whole entry, looked up): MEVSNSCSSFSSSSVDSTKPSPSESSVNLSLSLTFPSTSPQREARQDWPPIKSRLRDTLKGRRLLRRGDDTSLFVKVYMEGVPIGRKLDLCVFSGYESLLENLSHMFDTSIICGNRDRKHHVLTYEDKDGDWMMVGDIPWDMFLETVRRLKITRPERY
UniProt P93024, sequence (whole entry, looked up): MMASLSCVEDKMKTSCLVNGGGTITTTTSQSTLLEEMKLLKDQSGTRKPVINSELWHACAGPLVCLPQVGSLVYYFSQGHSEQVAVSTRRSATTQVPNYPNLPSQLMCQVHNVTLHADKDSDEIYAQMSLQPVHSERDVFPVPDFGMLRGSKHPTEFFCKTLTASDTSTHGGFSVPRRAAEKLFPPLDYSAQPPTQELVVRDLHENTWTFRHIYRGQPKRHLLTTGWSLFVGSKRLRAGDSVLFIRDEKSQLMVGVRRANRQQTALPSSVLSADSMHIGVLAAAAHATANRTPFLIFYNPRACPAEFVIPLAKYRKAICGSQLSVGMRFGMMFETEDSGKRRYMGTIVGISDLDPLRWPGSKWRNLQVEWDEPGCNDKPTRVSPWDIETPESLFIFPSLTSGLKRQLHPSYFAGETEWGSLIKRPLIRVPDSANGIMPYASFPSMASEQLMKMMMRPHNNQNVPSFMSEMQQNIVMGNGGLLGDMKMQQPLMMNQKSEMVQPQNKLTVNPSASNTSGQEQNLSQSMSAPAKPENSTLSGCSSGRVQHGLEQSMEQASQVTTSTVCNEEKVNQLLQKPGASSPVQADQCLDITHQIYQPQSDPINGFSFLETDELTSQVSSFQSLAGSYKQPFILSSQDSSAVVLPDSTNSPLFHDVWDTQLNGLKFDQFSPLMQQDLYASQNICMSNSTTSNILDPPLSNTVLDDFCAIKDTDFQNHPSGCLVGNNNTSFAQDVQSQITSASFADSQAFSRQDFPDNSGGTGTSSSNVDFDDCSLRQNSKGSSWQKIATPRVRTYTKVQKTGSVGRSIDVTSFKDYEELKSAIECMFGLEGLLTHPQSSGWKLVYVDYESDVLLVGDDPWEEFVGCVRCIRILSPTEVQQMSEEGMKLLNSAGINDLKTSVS
UniProt Q9ZTX9, sequence (whole entry, looked up): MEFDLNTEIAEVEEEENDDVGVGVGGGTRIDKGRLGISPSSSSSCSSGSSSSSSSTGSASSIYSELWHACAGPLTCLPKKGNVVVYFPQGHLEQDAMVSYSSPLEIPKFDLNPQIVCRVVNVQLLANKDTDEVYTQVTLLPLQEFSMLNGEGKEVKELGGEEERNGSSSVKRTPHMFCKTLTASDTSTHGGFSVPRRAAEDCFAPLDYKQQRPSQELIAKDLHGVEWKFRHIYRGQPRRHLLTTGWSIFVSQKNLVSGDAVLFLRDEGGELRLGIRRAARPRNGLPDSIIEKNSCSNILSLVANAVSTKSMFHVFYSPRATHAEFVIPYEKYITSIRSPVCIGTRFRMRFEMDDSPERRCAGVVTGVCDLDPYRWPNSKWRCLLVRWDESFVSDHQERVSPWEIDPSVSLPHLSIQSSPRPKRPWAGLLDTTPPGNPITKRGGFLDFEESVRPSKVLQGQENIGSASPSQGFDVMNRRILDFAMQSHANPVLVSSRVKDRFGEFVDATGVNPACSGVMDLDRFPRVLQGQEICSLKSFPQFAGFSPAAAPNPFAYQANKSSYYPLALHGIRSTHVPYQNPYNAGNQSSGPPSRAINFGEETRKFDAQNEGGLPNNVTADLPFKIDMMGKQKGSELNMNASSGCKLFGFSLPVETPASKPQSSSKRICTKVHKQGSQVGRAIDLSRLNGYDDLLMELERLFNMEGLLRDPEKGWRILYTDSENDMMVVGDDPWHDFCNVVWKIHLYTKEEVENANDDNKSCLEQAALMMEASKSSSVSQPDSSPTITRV
UniProt P33078, sequence (whole entry, looked up): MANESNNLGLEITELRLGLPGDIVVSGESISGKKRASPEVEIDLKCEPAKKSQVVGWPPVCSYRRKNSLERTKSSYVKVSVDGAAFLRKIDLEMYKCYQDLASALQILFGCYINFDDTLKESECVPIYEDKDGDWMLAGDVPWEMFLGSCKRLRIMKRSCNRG

Series 1 — target: CCND1, cyclin fold, Cln2 fusion (human); method: yeast growth competition, sequencing; sample: yeast; notes: weak parent motif; reference: not given; reading: higher = stronger binding
Parent: E2F1 docking peptide (human); PPVKRRLDLETDH
| Change | normalised enrichment score |
| --- | --- |
| V3R | 0.127 |
| R5T | 0.0344 |
| L7Y | 0.0603 |
| R6T | 0.805 |
| E10R | -0.165 |
| K4N | 0.0847 |
| K4A | 1.69 |
| P1M | 1.25 |
| H13Y | 0.215 |
| D8A | -0.00186 |
| K4V | 0.659 |
| K4S | 0.735 |
| E10L | -0.00107 |
| P1Y | 0.939 |
| T11Y | 0.724 |
| R6V | 0.253 |
| D12I | 0.0873 |
| K4Q | 0.694 |
| L7I | 0.347 |
| R6D | -0.291 |
| T11R | -0.0352 |
| E10N | 0.45 |
| H13M | 0.497 |
| R6L | 0.356 |
| D8F | 0.978 |

Series 2 — method: protein-binding microarray; form: double-stranded DNA, one strand shown; sample: in vitro; tested at: 940 nM top; notes: 60-bp whole probe; with: salmon DNA 0.4 mg/ml; reference: random background probes; reading: higher = stronger binding; shared flanks, not repeated: GCCTAGCAC … GTCTTGATTCGCTTGACGCTGCTG
Target: Interferon regulatory factor 5, full length, phosphomimetic (IRF5, Homo sapiens, UniProt Q13568-2, residues 1-514, S451D/S453D/S456D/S462D)
| Sequence | fitted relative affinity |
| --- | --- |
| TTAGATATCAGACTGGATAAGTGCTAG | -0.457 z-score |
| TCACTTTTGCTTGTTCTTACTGTGCTA | 1.45 z-score |
| TTAGGGCTCCTTATCCTTTAGTGCTAG | 0.105 z-score |
| TTAAATATCAGTCTCGATTAGTGCTAG | 3.39 z-score |
| AGTGTGGTCTGTTTCTGATAGTGCTAG | 0.499 z-score |
| GACGACATCGGGACTGGAGACGTGCTA | -0.482 z-score |
| GGCGGACTGCTTATCCTGACGTGCTAG | -0.538 z-score |
| TGTGGACCTTGGGAGATTTCGTGCTAG | -0.31 z-score |
| GTCGAACTGGGGTATCGAGACGTGCTA | 1.95 z-score |
| TCAAGTCTGAGATCCAGACTGTGCTAG | -0.893 z-score |
| TTAGATAACAGACTGGATTAGTGCTAG | -0.399 z-score |
| CCACCACCAACACCAGTCATGTGCTAG | 0.662 z-score |
| GAAGATTTCGGGACTGGAGACGTGCTA | -0.0592 z-score |
| GAGGGTATCCTTTTCCTGACGTGCTAG | -0.1 z-score |
| GACGGACTGGGTATCCGGACGTGCTAG | -0.613 z-score |
| TTAGGTCTCGGTAACGGTTAGTGCTAG | 3.75 z-score |
| TCACTTTCCTTCTTGATACTGTGCTAG | 2.31 z-score |
| ATAGGTTTCGGTATCGGTTAGTGCTAG | 14.9 z-score |
| TCATCTGTTCTTTTCAGACTGTGCTAG | 0.207 z-score |
| TCACATTTGGAAAATGTAACTGTGCTA | 0.0749 z-score |
| GACGCTCTCAGACTGGAGACGTGCTAG | 0.0935 z-score |
| GACGGTTCCTGTTTCGGGACGTGCTAG | 1.97 z-score |
| TTAGTTATCGGACTGGGTTAGTGCTAG | -0.00438 z-score |
| GACGGTTTCCTACTGCTGAGGTGCTAG | 0.316 z-score |
| TCATATTTAGAACTTCTCACTGTGCTA | 0.423 z-score |

Series 3 — Molecule: B1 (IAA1); method: two-hybrid; reference: out of 4 tests; reading: higher = firmer interaction
B1: IAA1 (Arabidopsis thaliana, UniProt P49677); chain MEVTNGLNLKDTELRLGLPGAQEEQQLELSCVRSNNKRKNNDSTEESAPPPAKTQIVGWPPVRSNRKNNNNKNVSYVKVSMDGAPYLRKIDLKMYKNYPELLKALENMFKFTVGEYSEREGYKGSGFVPTYEDKDGDWMLVGDVPWDMFSSSCQKLRIMKGSEAPTAL
| partner | setting | positive tests |
| --- | --- | --- |
| ARF13 (Arabidopsis thaliana, UniProt Q9FX25) |  | 0 |
| IAA31 (Arabidopsis thaliana, UniProt Q8H174) |  | 2 |
| IAA16 (Arabidopsis thaliana, UniProt O24407) |  | 3 |
| ARF5 788-902 (Arabidopsis thaliana, UniProt P93024) |  | 4 |
| ARF17 (Arabidopsis thaliana, UniProt Q84WU6) | weak activation fusion | 2 |
| IAA5 (Arabidopsis thaliana, UniProt P33078) |  | 3 |
| IAA10 (Arabidopsis thaliana, UniProt Q38828) |  | 1 |
| ARF4 660-788 (Arabidopsis thaliana, UniProt Q9ZTX9) |  | 1 |
| IAA2 (Arabidopsis thaliana, UniProt P49678) |  | 3 |

Series 4 — method: RNA Bind-n-Seq; form: RNA; sample: in vitro; tested at: not given; reference: input RNA pool; reading: higher = stronger binding
Target: RING finger protein unkempt homolog, zinc fingers 1-6, GST-SBP tag (UNK, Homo sapiens, UniProt Q9C0B0, residues 30-357)
Notes: RNA with constant flanks, human-mouse chimeric sites, ends assumed
Shared flanks, not repeated: GGGAGUUCUACAGUCCGACGAUC … CAACAGAGGAUUGAGCAUCA
Construct (chain): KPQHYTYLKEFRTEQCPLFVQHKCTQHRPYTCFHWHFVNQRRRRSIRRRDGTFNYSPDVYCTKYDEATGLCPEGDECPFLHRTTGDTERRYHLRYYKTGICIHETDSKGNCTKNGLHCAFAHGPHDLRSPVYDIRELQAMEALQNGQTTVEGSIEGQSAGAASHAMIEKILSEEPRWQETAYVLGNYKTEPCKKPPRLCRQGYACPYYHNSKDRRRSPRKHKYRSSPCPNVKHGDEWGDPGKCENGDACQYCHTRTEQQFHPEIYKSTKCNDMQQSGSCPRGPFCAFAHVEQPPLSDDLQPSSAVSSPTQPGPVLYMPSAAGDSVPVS
| Sequence | bound/input enrichment |
| --- | --- |
| UUCAAAGAAAAGGGCAGCUGUGUCAUUUCAUAAGUAACUCUGGGGGAGGGAAAUUCUGUUCUUUUGUUUAAUUUUCCCCCAGAUAAAGCCAAAGUGUUUUUUAAGGAACUGAGAAAAAAU | 0.0877 ratio |
| UCUGGUCACACUCGUGUGUAUGGUGUUUGCUUUGUGGACACUUCACUGGGCAAGUUUUUCAUCGGCCAGUUUUCGGAUGAUCGCCAUUGUUCCAGAUUUAGGACGCUAGUGGCUCACUAU | 0.294 ratio |
| ACCAUUUUCGCGGUUCAAGGUUUUGUGGUAGUUCACUUACGGUAUUAAAUUAUUAUUCUGCUUAGCUUAUAAUAAGGAUAAUUGCAUGAUUUAAGUAUACUGAAUGUUACUCUGAAACUU | 0.378 ratio |
| GAUAGGAAAAGCUUGUUGGAGACCCGCUUGCAUGUCACUGGUAGAGACCUGAGGUGUCAAAUAGCUGAAACUUUCGGAUUUCAAGAAAAUUACAUCAAAAUUGUCAUAAAUAAGAAACAG | 0.544 ratio |
| AACUUCGUGCAUCGGUUUCCCUUUGUAGCUGUUUCAAUUGGCUUCCUUGUGAAUAAAGAGAUGGAGUUUGGAAUUGUGUACAGCUGUGUGGAAGGCAAGAUGUACACCGGCAGGAAAGGG | 0.297 ratio |
| UUCAAAGAAAAGGGCAGCUGUGUCAUUUCAUAAGUAAAACUGCAUCCGGGAAAUUCUAACUAGUUUGUUAAUUUUCCCCCAAAUGAAGCCAAAGUGUGUGUUGAAGAACUGAGAAAAAAU | 0.321 ratio |
| UCGGAUGCUGUGCUGGGUCACUUUUCAUAUCCUGAUCCUUCACAGUGGACAGAUGAAGAACUGGGAAUCCCUCCUGAUGACGAGGACUGACACUGUAAACUCUCUGGCACUCUGUACGCA | 0.433 ratio |
| AAAGCCCAAGUAUUUUGAAAAAACUCGAACAGAUUUGACAAGGGUAGCCAGCUUGGAGUCUAGCAAUUUUGCCAAUGGUUUACCAAUCUGGGGGCUUGUUUUUCUUUUCUUCUUUCAAAU | 0.388 ratio |
| AACAGAUUGUCUUUAAGGUCAACGUAGGAGAAUGCUGAAAUAGUCAUUGUUGCCCAUGUGCCUUCUGACUGAGCUUUAAUGCUGUUCCAUGUUACAUCUUUCCUUCACUCCAGAAUUGUU | 0.175 ratio |
| AAAGAACCUCUCUCUGAUGAAGAUGAGGAAGACAAUGAUGAUGUUGAACCCAUUUCUGAAUUUCGAUUUGUGCCCAGUGAUAAGUCAGCAUUGGAGGCAAUGUUCACUGCAAUGUGCGAG | 0.174 ratio |
| UUUGUAUUCAUGUUAAGCACACGUGCUGGUGGUCUGGGCAUCAAUCUUGCAACUGCUGAUGUAGUCAUUUUAUAUGACUCAGAUUGGAAUCCGCAAGUAGAUCUUCAGGCUAUGGACCGU | 0.195 ratio |

Series 5 — method: DHFR PCA, deep sequencing; sample: yeast; with: (+)-ABA 200 µM; reference: wild-type fitted maximum; reading: higher = stronger binding
Target: ABI1, truncated, D143A, DHFR fusion (Arabidopsis thaliana)
Notes: methotrexate growth selection, single substitutions
Parent: PYL1, truncated, DHFR fusion (Arabidopsis thaliana); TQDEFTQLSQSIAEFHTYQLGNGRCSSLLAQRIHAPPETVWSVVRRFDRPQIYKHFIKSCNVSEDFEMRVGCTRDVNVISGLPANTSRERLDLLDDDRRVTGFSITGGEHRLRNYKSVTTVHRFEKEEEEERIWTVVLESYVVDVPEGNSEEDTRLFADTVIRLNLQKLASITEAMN
| Change | relative binding score |
| --- | --- |
| R45W | -17% |
| E131W | 88.9% |
| D97G | 96.3% |
| G108W | 16% |
| P146K | -0.377% |
| T73Y | 110% |
| Q19P | 97.1% |
| F47Q | 4.08% |
| P37T | 75.9% |
| I172H | 93% |
| D96S | 56.6% |
| R49K | 101% |
| V76T | 77.7% |
| E129V | 108% |
| Q2R | 99.5% |
| S171I | 93.1% |
| S63C | 97.7% |
| H34K | 102% |

Some of these lines once more (series 3):
| partner | setting | positive tests |
| --- | --- | --- |
| ARF13 (Arabidopsis thaliana, UniProt Q9FX25) |  | 0 |
| IAA31 (Arabidopsis thaliana, UniProt Q8H174) |  | 2 |
| IAA16 (Arabidopsis thaliana, UniProt O24407) |  | 3 |
| ARF5 788-902 (Arabidopsis thaliana, UniProt P93024) |  | 4 |
| ARF17 (Arabidopsis thaliana, UniProt Q84WU6) | weak activation fusion | 2 |
| IAA5 (Arabidopsis thaliana, UniProt P33078) |  | 3 |
| IAA10 (Arabidopsis thaliana, UniProt Q38828) |  | 1 |
| ARF4 660-788 (Arabidopsis thaliana, UniProt Q9ZTX9) |  | 1 |
| IAA2 (Arabidopsis thaliana, UniProt P49678) |  | 3 |
